Results collected from several papers.
Parts stem from different laboratories: compare values within a part only.

Series 1
Target: RING finger protein unkempt homolog, zinc fingers 1-6, GST-SBP tag (UNK, Homo sapiens, UniProt Q9C0B0, residues 30-357)
Chain of UniProt Q9C0B0 (30-357, looked up): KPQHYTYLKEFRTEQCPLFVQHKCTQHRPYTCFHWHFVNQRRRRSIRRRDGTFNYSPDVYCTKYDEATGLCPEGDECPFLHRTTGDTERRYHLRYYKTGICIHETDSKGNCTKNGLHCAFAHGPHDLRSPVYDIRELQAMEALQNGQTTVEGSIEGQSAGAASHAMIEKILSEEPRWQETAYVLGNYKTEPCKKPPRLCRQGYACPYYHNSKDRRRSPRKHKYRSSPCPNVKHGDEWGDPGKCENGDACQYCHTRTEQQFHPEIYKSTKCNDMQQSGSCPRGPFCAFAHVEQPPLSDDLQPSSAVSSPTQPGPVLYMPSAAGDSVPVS
Method: RNA Bind-n-Seq
Molecule type: RNA
Medium: in vitro
Tested at: not given
Notes: RNA with constant flanks, human and mouse sites, ends assumed
Relative to: input RNA pool
Direction: higher = stronger binding
Strand	bound/input enrichment [ratio]
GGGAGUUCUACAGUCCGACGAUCGAUAUGGAAGAGGAAGCAGAUGAUGGUUCUAAGAUGGGAUCUGAUUUAGUCAGUCAGCAAGACAUCUGUAUAGAUUCUGCUUCAUCCGUGAGAGAGAAUAAGCAACCUGAAGGUUUGGAACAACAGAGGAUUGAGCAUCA	0.174
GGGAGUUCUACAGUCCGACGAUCCCCAUAUUACAUGGACUAUGUACCUUUGGAUUUUCUGCAAGGCAUGUUUUACAGCAGUUUGCAGAUAAUGAUGUAUCAAGAUUCAAGGCGAUUAAGGUUCGUUUUGCCAAACCAGUGUAUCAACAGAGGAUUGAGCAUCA	0.114
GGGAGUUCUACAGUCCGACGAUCUGUGACAAGCUUUAUACCUGCCGGCUGUGUCACGAUACCAAUGAAGAUCAUCAGCUAGAUCGUUUCAAAGUCAAGGAAGUGCAGUGCAUCAACUGUGAAAAACUCCAACAUGCCCAGCAGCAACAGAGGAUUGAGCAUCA	0.149
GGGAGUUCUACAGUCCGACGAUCAGGAAUGUUGAAGAGAACUCCAAAAAGAAACAGCAAUAUGAAGAAGAUUCCAAAGAAACCCUUAAAACAAGUGAGCAUUGUGAAAAGGAAAAAAUUUCUUCUUCAAAGGAGCUGAAGCAUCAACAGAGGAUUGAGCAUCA	0.12
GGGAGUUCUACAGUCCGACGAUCUUUGAUAUUCCUAGCAUGGAAUCUACCCUCAAUCAGUCGGCAAUGAUGGAGACACUUUAUUCAGAUCCUCACCACCGAGUCCGCUUCCACAACCCAAGAACCAGCACAAGUAAGGAGUUGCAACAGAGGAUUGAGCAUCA	0.171
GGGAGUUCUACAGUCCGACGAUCUUUAUUCCGUAAAACAUGAAGGACAAAACUCAAAAAUAUAUUUCAAGUCAACGGCCAGAAAACUCUCACCUUCUUCCCGCCCAAAAGGACCUUUCUGUACAUGACACUUUUUGUUGGUUUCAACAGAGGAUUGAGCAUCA	0.586

Series 2
Target: Fragile X messenger ribonucleoprotein 1, C-terminal low-complexity region (Fmr1, Mus musculus, UniProt P35922)
Method: RNA Bind-n-Seq
Molecule type: RNA
Medium: in vitro
Tested at: 200 nM
Notes: whole 134-nt RNA, ends assumed
Added: 150 mM LiCl
Relative to: input library
Direction: higher = stronger binding
Each molecule: 7-deaza-guanosine replaces G
Strand	log2 enrichment
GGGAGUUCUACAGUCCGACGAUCAAGUCCUGUGCUACACAUCGUAUGUACCGAAUCGGAAAAAAAGGAAAGGAAAAAGGAAAGUAUUAUGUUACGCCGUUCGGAUCUGCACUUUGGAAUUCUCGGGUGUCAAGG	-1.41
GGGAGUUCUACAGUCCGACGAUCUAACUUUAGAGGAGGAUCUGAUGGAUAUGGCAGUGGACGUGGAAUUGGGGAUGGCUAUAAUGGGUAUGGAGGAGGACCUGGAGGUGGCAAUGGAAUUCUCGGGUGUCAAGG	-0.261
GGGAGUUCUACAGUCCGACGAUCACCAUGCAGGUGGGCAUCUUUGGGAAGUGGGGCAAGGGGGGGAUAGGGAGGGGGGUAACACUUUGGGAACAGGUGGUCCCAGGUCGUAUCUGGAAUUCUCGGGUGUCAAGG	1.12
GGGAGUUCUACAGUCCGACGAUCACCAUGCAGGUGGGCAUCUUUGGGAAGUGGGGCAAGGGGGGGAAAGGGAGGGGGGUAACACUUUGGGAACAGGUGGUCCCAGGUCGUUUCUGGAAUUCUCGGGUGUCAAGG	1.29
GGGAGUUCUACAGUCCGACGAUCGUCCUGUGCUACACAUCGUAUGUACCGAAUCGGGAGGGAAAAAAAGGGUUUUUUUGGGAAAGUAUUAUGUUACGCCGUUCGGAUCUGCACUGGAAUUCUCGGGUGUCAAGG	-1.21

Series 3
Target: Interferon regulatory factor 3, full length, phosphomimetic (IRF3, Homo sapiens, UniProt Q14653, residues 1-427, S386D/S396D/S398D/S402D/T404D/S405D)
Chain of UniProt Q14653 (whole entry, unmodified, looked up): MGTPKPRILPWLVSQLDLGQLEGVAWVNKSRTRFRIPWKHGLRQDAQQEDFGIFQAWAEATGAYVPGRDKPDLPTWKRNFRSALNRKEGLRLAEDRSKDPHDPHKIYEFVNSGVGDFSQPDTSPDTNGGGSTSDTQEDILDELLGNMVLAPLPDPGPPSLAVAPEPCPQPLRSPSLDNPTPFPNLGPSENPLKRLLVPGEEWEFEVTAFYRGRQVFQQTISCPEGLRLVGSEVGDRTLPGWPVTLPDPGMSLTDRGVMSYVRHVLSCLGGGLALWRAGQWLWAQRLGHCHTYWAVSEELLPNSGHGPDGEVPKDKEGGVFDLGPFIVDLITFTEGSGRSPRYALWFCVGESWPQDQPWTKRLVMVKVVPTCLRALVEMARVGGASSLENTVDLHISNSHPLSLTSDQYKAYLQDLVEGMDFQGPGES
Method: protein-binding microarray
Molecule type: double-stranded DNA, one strand shown
Medium: in vitro
Tested at: 2540 nM top
Notes: 60-bp whole probe
Added: salmon DNA 0.4 mg/ml
Relative to: random background probes
Direction: higher = stronger binding
Shared flanks, not repeated: GCCTAGCAC … GTCTTGATTCGCTTGACGCTGCTG
Strand	fitted relative affinity [z-score]
TTAGATCTCGGGACTGGATTAGTGCTA	-0.497
TTAGGTTTCGACTATCGCTTAGTGCTA	2.24
GCCATTATGAGTCTTGAAGAGTGCTAG	-0.0622
TTAGGACTGGGGACTGGATTAGTGCTA	-0.853
GACGAACTGAGTTTCGCGACGTGCTAG	0.528
TTAGATTTCCGGTATCGATTAGTGCTA	2.05
GACGGGCTGGACACTGGGGACGTGCTA	-0.97
GGACTGTCAGCCACTTTTTGGTGCTAG	-0.421

Single results of other studies
Substance	target	test	system	setting	scale	endpoint	result
PhoQ, residues 284 288 289 292 302 303 SSCCRF	PhoP, residues 12 14 15 18 19 AGCRL (Escherichia coli, UniProt P23836)	Sort-seq, measured: YFP reporter	E. coli	PhoQ-PhoP variant library, added: 10 µM Mg2+	relative to: high Mg2+ state, higher = stronger signaling	fold induction	21

Some of these lines once more (series 1):
Strand	bound/input enrichment [ratio]
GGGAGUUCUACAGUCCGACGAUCUGUGACAAGCUUUAUACCUGCCGGCUGUGUCACGAUACCAAUGAAGAUCAUCAGCUAGAUCGUUUCAAAGUCAAGGAAGUGCAGUGCAUCAACUGUGAAAAACUCCAACAUGCCCAGCAGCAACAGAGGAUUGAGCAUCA	0.149
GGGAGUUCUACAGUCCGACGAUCUUUGAUAUUCCUAGCAUGGAAUCUACCCUCAAUCAGUCGGCAAUGAUGGAGACACUUUAUUCAGAUCCUCACCACCGAGUCCGCUUCCACAACCCAAGAACCAGCACAAGUAAGGAGUUGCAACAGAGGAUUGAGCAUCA	0.171
